{"data": "Experimental data from different studies", "organism": "Trypanosoma brucei", "read-out": "parasite growth", "note": "Compare with care: the assays were run in different laboratories. “And” joins repeats or separate records; there may be more than shown."}
{"Compound": "CN1CCC(n2cnc(-c3ccc(F)cc3)c2-c2ccnc(N)n2)CC1", "measurement": "EC50", "value": "1000 nM"}
{"Compound": "C[C@@H]1COCCN1c1cccc(-c2ccc3ncnc(Nc4ncco4)c3c2)c1", "technique": "SYBR Green", "time": "48 h", "measurement": "GI50", "value": "190 nM"}
{"Compound": "COc1ccccc1C(=O)CSc1nc(C)cc(C)c1C#N", "technique": "resazurin", "strain": "RHODESIENSE", "measurement": "EC50", "value": "> 64000 nM"}
{"Compound": "C[C@@H](Oc1cc(-n2cnc3ccc(OC4CCN(C)CC4)cc32)sc1C(N)=O)c1ccccc1Cl", "measurement": "EC50", "value": "79.4 nM"}
{"Compound": "Cc1nc(Nc2ncnc3ccc(-c4cccc(N5CCOCC5)c4)cc23)oc1C", "technique": "SYBR Green", "time": "48 h", "measurement": "GI50", "value": "1300 nM"}
{"Compound": "CN1CCN(Cc2ccc(-c3cc4ncnc(Nc5ccc(OCc6cccc(F)c6)c(Cl)c5)c4s3)o2)CC1", "measurement": "EC50", "value": "2000 nM"}
{"Compound": "Cc1cc(C)c(C#N)c(SCC(=O)c2ccc(F)cc2)n1", "technique": "resazurin", "strain": "RHODESIENSE", "measurement": "EC50", "value": "36200 nM"}
{"Compound": "NS(=O)(=O)c1ccc(Nc2ncc(-c3ccccc3)o2)cc1", "measurement": "EC50", "value": "631 nM"}
{"Compound": "Cc1cc(C)nc(SCC(=O)c2cccs2)n1", "technique": "resazurin", "strain": "RHODESIENSE", "measurement": "EC50", "value": "> 64000 nM"}
{"Compound": "CN1CCN(c2cccc(-c3ccc4ncnc(Nc5ccc(Cl)c(C(F)(F)F)c5)c4c3)c2)CC1", "technique": "SYBR Green", "measurement": "GI50", "value": "310 nM"}
{"Compound": "Cc1cnc(CNC(=O)c2c(=O)c3ccc(N4CCCN(C)CC4)nc3n3c2sc2ccccc23)cn1", "technique": "resazurin", "measurement": "EC50", "value": "150 nM"}
{"Compound": "COc1cc(C)c(C#N)c(SCC(=O)c2ccccc2)n1", "technique": "resazurin", "measurement": "EC50", "value": "34900 nM"}
{"Compound": "Cc1ccc2c(c1)C(=NNc1ccc(S(N)(=O)=O)cc1)C(=O)N2", "measurement": "EC50", "value": "1580 nM"}
{"Compound": "c1cc(-c2ccc3ncnc(Nc4ncco4)c3c2)cc(N2CC3CCC(C2)O3)c1", "technique": "SYBR Green", "time": "48 h", "measurement": "GI50", "value": "280 nM"}
{"Compound": "CNc1ccnc(SCC(=O)c2ccccc2)c1C#N", "technique": "resazurin", "measurement": "EC50", "value": "> 64000 nM"}
{"Compound": "C[C@@H]1CN(c2cccc(-c3ccc4ncnc(Nc5ncco5)c4c3)c2)C[C@H](C)O1", "technique": "SYBR Green", "time": "48 h", "measurement": "GI50", "value": "320 nM"}
{"Compound": "CN(C)CCNC(=O)c1cccn2c(=O)c3cc4ccccc4cc3nc12", "technique": "resazurin", "measurement": "EC90", "value": "170 nM"}
{"Compound": "COC(=O)c1ccc2c(c1)C(=Cc1cc(Br)c(O)c(Br)c1)C(=O)N2", "measurement": "EC50", "value": "25100 nM"}
{"Compound": "CN(c1ncco1)c1ncnc2ccc(-c3cccc(N4CCOCC4)c3)cc12", "technique": "SYBR Green", "time": "48 h", "measurement": "GI50", "value": "17000 nM"}
{"Compound": "Nc1nc(NCCNc2ncc(-c3ncc[nH]3)c(-c3ccc(Cl)cc3Cl)n2)ccc1[N+](=O)[O-]", "measurement": "EC50", "value": "> 3000 nM"}
{"Compound": "Cc1cc(C)c(C#N)c(SCC(=O)c2ccc(Cl)cc2Cl)n1", "technique": "resazurin", "strain": "RHODESIENSE", "measurement": "EC50", "value": "28600 nM"}
{"Compound": "CCOC(=O)c1cnc2c([N+](=O)[O-])cc(C(F)(F)F)cc2c1NCc1ccc(F)cc1", "technique": "resazurin", "time": "72 h", "measurement": "EC50", "value": "2200 nM and 2000 nM"}
{"Compound": "Cc1cc(C)c(C#N)c(SCC(=O)c2ccccc2)n1", "technique": "resazurin", "strain": "RHODESIENSE", "measurement": "EC50", "value": "48600 nM"}
{"Compound": "COc1cc2ncn(-c3cc(O[C@H](C)c4ccccc4Cl)c(C(N)=O)s3)c2cc1OC", "measurement": "EC50", "value": "251 nM"}
{"Compound": "C[n+]1cc(NC(=O)c2ccc3ccc4ccc(C(=O)Nc5cc6ccccc6[n+](C)c5)nc4c3n2)cc2ccccc21", "technique": "resazurin", "measurement": "EC90", "value": "1040 nM"}
{"Compound": "CN1CCN(c2cccc(-c3ccc4ncnc(Nc5ccc([N+](=O)[O-])c(C(F)(F)F)c5)c4c3)c2)CC1", "technique": "SYBR Green", "strain": "GAMBIENSE", "measurement": "GI50", "value": "170 nM"}
{"Compound": "Cc1cc(C)c(C#N)c(SCC(=O)N2CCN(C)CC2)n1", "technique": "resazurin", "measurement": "EC50", "value": "> 64000 nM"}
{"note": "For quick reference, copied from above:"}
{"Compound": "C[C@@H](Oc1cc(-n2cnc3ccc(OC4CCN(C)CC4)cc32)sc1C(N)=O)c1ccccc1Cl", "measurement": "EC50", "value": "79.4 nM"}
{"Compound": "Cc1ccc2c(c1)C(=NNc1ccc(S(N)(=O)=O)cc1)C(=O)N2", "measurement": "EC50", "value": "1580 nM"}
{"Compound": "Cc1cc(C)c(C#N)c(SCC(=O)c2ccc(F)cc2)n1", "technique": "resazurin", "strain": "RHODESIENSE", "measurement": "EC50", "value": "36200 nM"}
